Assay results gathered from unrelated publications.
Lines come from different studies, so protocols differ. ± marks the error that the study gave.

SMILES	tested on	test	system	conditions	measurement	value
COCCn1c2ccc([N+](=O)[O-])cc2c(=O)n1Cc1ccccc1	Leishmania amazonensis	parasite growth, resazurin	–	promastigote	IC50	1710 nM
CNCc1ccc2c(c1)N(C(=O)OCc1c(F)c(F)c(F)c(F)c1F)[C@H](CNC(=N)N)[C@H]2NC(=O)C(=O)Nc1ccc(Cl)c(F)c1	HIV-1	pseudovirus infection, Env pseudovirus neutralisation	TZM-bl, clade C T/F isolate 2A2	–	IC50	7060 nM
O=C(N/N=C/c1cc[n+](Cc2ccccc2)c2ccccc12)N/N=C/c1cc[n+](Cc2ccccc2)c2ccccc12	MYC parallel G4 DNA	FRET melting	–	1 µM, DNA 0.2 µM	ΔTm	5.7 ± 0.5 °C
CC[C@H](C)[C@H](NC(=O)[C@H](CCC(N)=O)NC(=O)[C@H](CC(C)C)NC(=O)[C@H](Cc1c[nH]c2ccccc12)NC(=O)[C@H](CC(C)C)NC(=O)[C@@H](NC(=O)[C@H](CCC(N)=O)NC(=O)[C@H](CC(C)C)NC(=O)[C@H](CCCNC(=N)N)NC(=O)[C@H](C)NC(=O)[C@@H](NC(=O)[C@H](CCCCN)NC(=O)[C@@H](N)CCC(N)=O)[C@@H](C)CC)[C@@H](C)O)C(=O)NCC(=O)N[C@H](C(=O)N[C@@H](CC(C)C)C(=O)N[C@@H](CC(C)C)C(N)=O)C(C)C	HIV-1 HXB2	viral infection, luciferase reporter	TZM-bl	–	IC50	> 4000 nM
O=C(N/N=C/c1ccc2c(ccc[n+]2Cc2ccccc2)c1)C(=O)N/N=C/c1ccc2c(ccc[n+]2Cc2ccccc2)c1	hp2 hairpin duplex DNA	FRET melting	–	1 µM	ΔTm	1.8 ± 0.3 °C
O=C(O)CN1C(=O)[C@H](Cc2ccccc2)NC2(C1=O)C1CC3CC(C1)CC2C3 (stereo partly drawn)	Trypanosoma brucei	parasite growth	–	pH 7.4, blood stage	IC50	111000 nM
COC(=O)Cn1c2ccc([N+](=O)[O-])cc2c(=O)n1Cc1ccccc1	Leishmania amazonensis	parasite growth, resazurin	–	promastigote	IC50	580 nM
O=C1NC(=O)C2(NC1Cc1ccccc1)C1CC3CC(C1)CC2C3 (stereo not drawn)	Trypanosoma brucei	parasite growth	–	pH 7.4, blood stage	IC50	18500 nM
CCCOC(=O)N1c2cc(CNC)ccc2[C@H](NC(=O)C(=O)Nc2ccc(Cl)c(F)c2)[C@H]1CNC(=N)N	HIV-1	pseudovirus infection, Env pseudovirus neutralisation	TZM-bl, clade B transmitted/founder	–	IC50	49 nM
O=C(O)CN1C(=O)CNC2(CCCCCC2)C1=O	Trypanosoma brucei	parasite growth	–	pH 7.4, blood stage	IC50	> 400000 nM
CNCc1ccc2c(c1)C[C@H](CNC(=N)N)[C@H]2NC(=O)C(=O)Nc1ccc(Cl)c(F)c1	HIV-1	pseudovirus infection, Env pseudovirus neutralisation	TZM-bl, clade G isolate C1_B5	–	IC50	16500 nM
CC(=O)OCCn1c2ccc([N+](=O)[O-])cc2c(=O)n1Cc1ccccc1	Leishmania amazonensis	parasite growth, resazurin	–	promastigote	IC50	2130 nM
O=C(Oc1cc(OC(=O)c2cc(O)c(O)c(O)c2)c2ccccc2c1)c1cc(O)c(O)c(O)c1	Human alphaherpesvirus 2	viral replication, inhibitor, qPCR	Vero	–	IC50	3670 nM
COC1C=COC2(C)Oc3c(C)c(O)c4c(c3C2=O)C2=NC3(CCN(CC(C)C)CC3)NC2=C(NC(=O)C(C)=CC=CC(C)C(O)C(C)C(O)C(C)C(OC(=O)Nc2cccnn2)C1C)C4=O (stereo not drawn)	Mycobacteroides abscessus	bacterial growth	subsp. abscessus clinical isolate	slow grower	IC50	19 nM
COC(=O)CCn1c2ccc([N+](=O)[O-])cc2c(=O)n1Cc1ccccc1	Leishmania amazonensis	parasite growth, resazurin	–	promastigote	IC50	610 nM

A few entries again:
SMILES	tested on	test	system	conditions	measurement	value
O=C(N/N=C/c1cc[n+](Cc2ccccc2)c2ccccc12)N/N=C/c1cc[n+](Cc2ccccc2)c2ccccc12	MYC parallel G4 DNA	FRET melting	–	1 µM, DNA 0.2 µM	ΔTm	5.7 ± 0.5 °C
